Published values from different studies.
Compare with care: the assays were run in different laboratories. ± marks the error that the study gave.
Cell line: HCT-116

CN1CCC(S(=O)(=O)NC23CCCC(C)(CCC4C2CC4(C)C)C3)CC1 (stereo not shown)  IC50 (cell growth or viability, CCK-8; 72 h): 31 µM
CO[C@@H]1[C@@H](O[C@@H]2O[C@H](C)[C@@H](O[C@H]3C[C@@](C)(O)[C@@H](OC(=O)/C=C/c4ccc(C(F)(F)F)cc4)[C@H](C)O3)[C@H](N(C)C)[C@H]2O)[C@@H](CC=O)C[C@@H](C)[C@@H](O[C@H]2CC[C@H](N(C)C)[C@@H](C)O2)/C=C/C=C/C[C@@H](C)OC(=O)C[C@H]1O  IC50 (cell growth or viability, CCK-8; 72 h): 2.36 µM
CC(=O)OC[C@H]1O[C@@H](Oc2ccc(C#[C][Pt+])cc2)[C@H](OC(C)=O)[C@@H](OC(C)=O)[C@@H]1OC(C)=O.O=S(=O)([O-])C(F)(F)F.c1ccc(-c2cccc(-c3ccccn3)n2)nc1  IC50 (cell growth or viability; 72 h): 16.2 µM
NNC(=O)CNC(=O)CCn1nc(Cc2ccccc2)c2ccccc2c1=O  IC50 (cell growth or viability, MTT; 48 h): 16.4 µM
NC(=S)NNC(=O)c1cc2ccccc2oc1=O  IC50 (cell growth or viability, SRB; 72 h): 15.2 µM
CSc1nc(Nc2ccc(/C(C)=N/NC(=O)c3ccc([N+](=O)[O-])cc3)cc2)c(C#N)c(-c2ccccc2)n1  IC50 (cell growth or viability, MTT; 48 h): 13.8 µM
Cc1c(C)c(C)[c-](C)c1C.Fc1c[c-]c(-c2ccccn2)cc1.[Cl-].[Ir+3]  IC50 (SRB; 24 h, 72 h recovery): 6.8 ± 0.1 µM
Cc1cc(C)c(N[C](NCc2ccc(N[C](Nc3c(C(C)C)cccc3C(C)C)=[Pt-]([Cl])([Cl])[C]#[N+]c3c(C(C)C)cccc3C(C)C)cc2)=[Au][Cl])c(C)c1  IC50 (cell growth or viability): > 100 µM
Cc1ccc(C(C)C)cc1.[Cl][Au].[Cl][Ru][Cl].c1ccc(P(CP(c2ccccc2)c2ccccc2)c2ccccc2)cc1  IC50 (cell growth or viability, trypan blue; 48 h): 4.6 µM
CN1CCC2(CC1)C/C(=N\NC(=O)Nc1ccc([N+](=O)[O-])cc1)c1ccccc1O2  IC50 (48 h): 20.7 ± 0.88 µM
C/C(=N\NC(=S)N(C)C)c1ccc(S(=O)(=O)N2CCC(C)CC2)cc1  IC50 (cell growth or viability, MTT): 11.8 µM
C#CCOc1ccc(/C=N\NC(=O)c2ccncc2)cc1  IC50 (cell growth or viability, MTT; 48 h): 395 µM
CCN1CCC2(CC1)C/C(=N\NC(=O)Nc1ccccc1)c1ccccc1O2  IC50 (48 h): 2.99 µM
CC(C)(C)N=[C](NCc1ccc(N)cc1)[AuH][Cl]  IC50 (cell growth or viability): > 100 µM
CN1CCN(c2ccc(Nc3nccc(-c4cn(C5CCCCC5)nn4)n3)cc2)CC1  IC50 (cell growth or viability, SRB; 72 h): 7.96 µM
CC1CN(C(=O)c2cn(C34CCCC(C)(CCC5C3CC5(C)C)C4)nn2)CCN1 (stereo not shown)  IC50 (cell growth or viability, CCK-8; 72 h): 16.3 µM
O=C(CCCCCCN1CCN(c2ccc(Nc3ncc(F)c(-c4cn(C5CCCC5)nn4)n3)cc2)CC1)NO  IC50 (cell growth or viability, SRB; 72 h): 2.07 µM
Cc1nc2ccccc2c(=O)n1N  IC50 (cytotoxicity, LDH release; 24 h, 50% viability reduction): 531 ± 16.1 µM
CSc1nc(Nc2cccc(/C(C)=N/NC(=O)c3ccccc3O)c2)c(C#N)c(-c2ccccc2)n1  IC50 (cell growth or viability, MTT; 48 h): 19.4 µM
N#Cc1c(F)c(F)c2nc(SCC3CCCO3)nc(N)c2c1F (stereo not shown)  IC50 (cell growth or viability, MTT; 96 h): 5.68 µM
CCC1=C(CC)C2=[N+]3C1=Cc1c(CC)c(CC)c4[n]1[Ir-3]31([C]#[N+]c3ccc(OC)cc3)([C]#[N+]c3ccc(OC)cc3)[n]3c(c(CC)c(CC)c3=CC3=[N+]1C(=C4)C(CC)=C3CC)=C2.F[B-](F)(F)F  IC50 (cell growth or viability, MTT; 72 h): 23 µM
O=C(NCCCCCNc1n[n+]([O-])c2ccccc2[n+]1[O-])C(F)(F)F  IC50 (cytotoxicity, MTT; 24 h, normoxia): 65.4 ± 14.6 µM
Cc1cc(C)c(N[C](NCc2cccc(N[C](Nc3c(C(C)C)cccc3C(C)C)=[Pd-]([Cl])([Cl])[C]#[N+]c3c(C(C)C)cccc3C(C)C)c2)=[Au][Cl])c(C)c1  IC50 (cell growth or viability): > 100 µM
COc1ccc(CN2C[C@H](O)[C@H](O)[C@@H]2CO)cc1  IC50 (cell growth or viability, MTS; 72 h): > 200 µM
CO[C@@H]1[C@@H](O[C@@H]2O[C@H](C)[C@@H](O[C@H]3C[C@@](C)(O)[C@@H](OC(=O)Nc4ccc(C)cc4)[C@H](C)O3)[C@H](N(C)C)[C@H]2O)[C@@H](CC=O)C[C@@H](C)[C@@H](O[C@H]2CC[C@H](N(C)C)[C@@H](C)O2)/C=C/C=C/C[C@@H](C)OC(=O)C[C@H]1O  IC50 (cell growth or viability, CCK-8; 72 h): 22 µM
COc1ccccc1/C=C1\SC(=O)N(CC(=O)Nc2ccc(C(=O)Nc3ccc([N+](=O)[O-])cc3)cc2)C1=O  IC50 (cell growth or viability, MTT): 9.17 µM
COc1cc(OC)c(-c2coc3c4c(c(OC)cc3c2=O)OC(C)(C)C=C4)cc1OC  IC50 (cell growth or viability, MTT; 72 h): 19.8 µM
CC(=NN=c1sc(C(=O)c2ccccc2)nn1-c1ccccc1)c1ccc(S(=O)(=O)N2CCC(C)CC2)cc1  IC50 (cell growth or viability, MTT): 3.66 µM
O=C(CCc1nc2cc(Cl)ccc2[nH]c1=O)Nc1ccc(O)cc1  IC50 (cell growth or viability, MTT): 4.72 µM
Cc1c(C(=O)NNC(=O)Nc2ccc(Cl)cc2)nnn1Cc1nc2ccccc2[nH]1  IC50 (48 h): 37.7 ± 2.6 µM
COc1cc2c(Oc3ccc(Nc4nn(C)cc4C(=O)NC4CCCCC4)cc3F)ccnc2cc1OCCCCCCC(=O)NO  IC50 (cell growth or viability, MTT): 0.07 µM
COC(=O)C(NC(=O)CNC(=O)CNC(=O)COc1ccc2c(C)cc(=O)oc2c1)c1ccccc1 (stereo in doubt)  IC50 (cell growth or viability, MTT): 140 µM
CSc1nc(Nc2cccc(/C(C)=N/NC(=O)c3ccccc3)c2)c(C#N)c(-c2ccccc2)n1  IC50 (cell growth or viability, MTT; 48 h): 18 µM
Cc1cc(C)c([N+]#[C][Pt-]([Cl])([Cl])=[C](Nc2ccc(CN[C](Nc3c(C(C)C)cccc3C(C)C)=[Au][Cl])cc2)Nc2c(C)cc(C)cc2C)c(C)c1  IC50 (cell growth or viability): > 100 µM
O=C(NCCNc1n[n+]([O-])c2ccccc2[n+]1[O-])C(F)(F)F  IC50 (cytotoxicity, MTT; 24 h, hypoxia): 33.8 µM
CCn1c(-c2ccccc2)cs/c1=N/N=C(\C)c1c(O)c2ccccc2oc1=O  IC50 (cell growth or viability, MTT; 48 h): 9.9 µM
CC(C)c1ccc2c(c1)CCC1[C@](C)(C(=O)OCCSc3nc(O)c(C#N)c(-c4ccc(O)cc4)n3)CCC[C@]21C (stereo partly shown)  IC50 (cell growth or viability, MTT; 48 h): 9.53 to 19.4 µM
N#Cc1c(F)c(Cl)c2nc(SCc3ccccc3)nc(N)c2c1F  IC50 (cell growth or viability, MTT; 96 h): 6.71 µM
CO[C@@H]1[C@@H](O[C@@H]2O[C@H](C)[C@@H](O[C@H]3C[C@@](C)(O)[C@@H](OC(=O)NC4CCCCC4)[C@H](C)O3)[C@H](N(C)C)[C@H]2O)[C@@H](CC=O)C[C@@H](C)[C@@H](O[C@H]2CC[C@H](N(C)C)[C@@H](C)O2)/C=C/C=C/C[C@@H](C)OC(=O)C[C@H]1O  IC50 (cell growth or viability, CCK-8; 72 h): > 50 µM
CSc1nc(Nc2ccc(C(=O)N/N=C/c3ccc(Cl)cc3Cl)cc2)c(C#N)c(-c2ccccc2)n1  IC50 (cell growth or viability, MTT; 48 h): 20.6 µM
Cc1cc(C)c(S(=O)(=O)N(CC(=O)O)c2ccc(Nc3ccnc(N4CCCC4)n3)cc2)c(C)c1  IC50 (cell growth or viability, MTT; 72 h): 8.99 µM
Cc1cc(C)c(N=[C](NCc2ccc(N)cc2)[AuH][Cl])c(C)c1  IC50 (cell growth or viability): > 100 µM
CCCN1CCN(CC(=O)N2CCN(c3cc(C)nc4ncnn34)CC2)CC1  IC50 (cell growth or viability, MTT): 62.6 µM
Cc1nnc(NC(=O)CSc2nnc(-c3ccc4c(c3)OCCO4)o2)s1  IC50 (cell growth or viability, MTT; 36 h): 7.2 µM
CC(C)Cn1cc(-c2nc(Nc3ccc(OCCCCCCC(=O)NO)cc3)ncc2F)nn1  IC50 (cell growth or viability, SRB; 72 h): 2.14 µM
CO[C@@H]1[C@@H](O[C@@H]2O[C@H](C)[C@@H](O[C@H]3C[C@@](C)(O)[C@@H](OC(=O)Nc4ccc(C(F)(F)F)cc4)[C@H](C)O3)[C@H](N(C)C)[C@H]2O)[C@@H](CC=O)C[C@@H](C)[C@@H](O[C@H]2CC[C@H](N(C)C)[C@@H](C)O2)/C=C/C=C/C[C@@H](C)OC(=O)C[C@H]1O  IC50 (cell growth or viability, CCK-8; 72 h): 5.79 µM
Fc1ccccc1/C=C/c1nc2ccccc2nc1N1CCOCC1  IC50 (cell growth or viability, MTT; 72 h): 11 µM
COc1cc(OC)c2c(c1)OCC(c1cc(OC)c(OC)cc1OC)C2=NO (stereo not shown)  IC50 (cell growth or viability, MTT; 72 h): 138 µM
COc1ccc(NC(=O)O[C@H]2[C@H](C)O[C@@H](O[C@H]3[C@H](N(C)C)[C@@H](O)[C@H](O[C@H]4[C@@H](CC=O)C[C@@H](C)[C@@H](O[C@H]5CC[C@H](N(C)C)[C@@H](C)O5)/C=C/C=C/C[C@@H](C)OC(=O)C[C@@H](O)[C@@H]4OC)O[C@@H]3C)C[C@@]2(C)O)cc1  IC50 (cell growth or viability, CCK-8; 72 h): > 50 µM
O=C(NCCCNc1n[n+]([O-])c2ccccc2[n+]1[O-])C(F)(F)F  IC50 (cytotoxicity, MTT; 24 h, normoxia): 55.4 ± 4.7 µM
CC(C)(C)N=[C](NCc1cccc(N)c1)[AuH][Cl]  IC50 (cell growth or viability): 4.4 µM
O=C(Cn1c(=O)c(Cc2ccccc2)nc2ccccc21)OCCNCCO  IC50 (cell growth or viability, MTT; 72 h): 0.057 µM
CSc1nc(N)c2c(F)c(C#N)c(F)c(Cl)c2n1  IC50 (cell growth or viability, MTT; 96 h): 5.08 µM
CC(C)c1cccc(C(C)C)c1[N+]#[C][Pt-]([Cl])([Cl])=[C](Nc1cccc(CN[C](Nc2c(C(C)C)cccc2C(C)C)=[Au][Cl])c1)Nc1c(C(C)C)cccc1C(C)C  IC50 (cell growth or viability): > 100 µM
O=C(Cn1c(=O)c(Cc2ccccc2)nc2ccccc21)NCCOCCO  IC50 (cell growth or viability, MTT; 72 h): 0.405 µM

A few entries again:
CO[C@@H]1[C@@H](O[C@@H]2O[C@H](C)[C@@H](O[C@H]3C[C@@](C)(O)[C@@H](OC(=O)NC4CCCCC4)[C@H](C)O3)[C@H](N(C)C)[C@H]2O)[C@@H](CC=O)C[C@@H](C)[C@@H](O[C@H]2CC[C@H](N(C)C)[C@@H](C)O2)/C=C/C=C/C[C@@H](C)OC(=O)C[C@H]1O  IC50 (cell growth or viability, CCK-8; 72 h): > 50 µM
CSc1nc(Nc2ccc(C(=O)N/N=C/c3ccc(Cl)cc3Cl)cc2)c(C#N)c(-c2ccccc2)n1  IC50 (cell growth or viability, MTT; 48 h): 20.6 µM
Cc1cc(C)c(S(=O)(=O)N(CC(=O)O)c2ccc(Nc3ccnc(N4CCCC4)n3)cc2)c(C)c1  IC50 (cell growth or viability, MTT; 72 h): 8.99 µM
Cc1cc(C)c(N=[C](NCc2ccc(N)cc2)[AuH][Cl])c(C)c1  IC50 (cell growth or viability): > 100 µM
CCCN1CCN(CC(=O)N2CCN(c3cc(C)nc4ncnn34)CC2)CC1  IC50 (cell growth or viability, MTT): 62.6 µM
Cc1nnc(NC(=O)CSc2nnc(-c3ccc4c(c3)OCCO4)o2)s1  IC50 (cell growth or viability, MTT; 36 h): 7.2 µM
CC(C)Cn1cc(-c2nc(Nc3ccc(OCCCCCCC(=O)NO)cc3)ncc2F)nn1  IC50 (cell growth or viability, SRB; 72 h): 2.14 µM
